Experimental data pooled from the literature.
Each line is one published result; not all experiments were run side by side.
Organism: Pseudomonas aeruginosa

CC(C)C[C@H](NC(=O)[C@H](CCN)NC(=O)[C@H](CCN)NC(=O)[C@@H](Cc1ccccc1)NC(=O)[C@H](CC(C)C)NC(=O)[C@H](CCN)NC(=O)[C@H](CCN)NC(=O)[C@@H](CCN)NC(=O)[C@@H](N)CS)C(N)=O has an MBC of 128 µM (PAO1; 24 h, 37 °C).
With CC[C@H](C)[C@H](NC(=O)[C@H](C)NC(=O)[C@@H](NC(=O)[C@H](CC(=O)O)NC(=O)[C@H](CCCCN)NC(=O)[C@H](CO)NC(=O)[C@@H](NC(=O)[C@H](CC(N)=O)NC(=O)[C@H](C)NC(=O)[C@@H](NC(=O)[C@H](CCC(=O)O)NC(=O)[C@H](CCCCN)NC(=O)[C@@H](NC(=O)[C@@H](NC(=O)[C@H](Cc1c[nH]cn1)NC(=O)[C@H](CCCCN)NC(=O)[C@@H](NC(=O)[C@H](CCCCN)NC(=O)[C@H](CCCCN)NC(=O)[C@@H](NC(=O)[C@H](CC(C)C)NC(=O)[C@H](CCCCN)NC(=O)[C@H](CC(N)=O)NC(=O)[C@H](Cc1ccccc1)NC(=O)[C@H](CCCNC(=N)N)NC(=O)[C@H](CCCCN)NC(=O)[C@H](CCCNC(=N)N)NC(=O)[C@H](Cc1ccccc1)NC(=O)CN)C(C)C)C(C)C)[C@@H](C)O)[C@@H](C)CC)[C@@H](C)O)C(C)C)C(C)C)C(=O)N[C@H](C(=O)N[C@@H](C)C(=O)NCC(=O)N[C@@H](CO)C(=O)NCC(=O)N[C@H](C(=O)N[C@@H](C)C(=O)N[C@H](C(=O)NCC(=O)N[C@@H](C)C(=O)N[C@@H](C)C(=O)N[C@@H](CCSC)C(N)=O)C(C)C)C(C)C)C(C)C the MIC was 16 µg/mL (ATCC 27853, CAMHB with 10% mouse serum; 150 mM NaCl).
With CC(C)[C@H]1NC(=O)CNC(=O)[C@H](CO)NC(=O)[C@@H](Cc2c(-c3ccc(-c4ccc5ccccc5c4)cc3)[nH]c3ccccc23)NC(=O)[C@@H](CO)NC(=O)[C@@H](C(C)C)NC(=O)[C@H](Cc2ccccc2)NC1=O the MIC90 was greater than 50 µM (broth dilution).
CC(C)C[C@H](NC(=O)[C@H](CS)NC(=O)[C@H](CCCCN)NC(=O)CCNC(=O)CCCCCNC(=O)[C@H](CCCNC(=N)N)NC(=O)CCCCCNC(=O)[C@H](CCCNC(=N)N)NC(=O)[C@H](CCCNC(=N)N)NC(=O)CCCCCNC(=O)[C@H](CCCNC(=N)N)NC(=O)[C@H](CCCNC(=N)N)NC(=O)CCCCCNC(=O)[C@H](CCCNC(=N)N)NC(=O)[C@H](CCCNC(=N)N)NC(=O)CCCCCNC(=O)[C@@H](N)CCCNC(=N)N)C(=O)N[C@H](C(=O)N[C@@H](CCCCN)C(=O)N[C@@H](CO)C(=O)N[C@@H](Cc1ccc(O)cc1)C(=O)N[C@H](C(=O)N[C@@H](CO)C(=O)N[C@@H](CS)C(=O)N[C@@H](CCCCN)C(=O)O)[C@@H](C)O)[C@@H](C)O — result for “biofilm biomass reduction”: roughly 40% (crystal violet; ATCC 27853; 6 µM).
CC(C)[C@H]1NC(=O)[C@H](Cc2ccccc2)NC(=O)[C@@H](C(C)C)NC(=O)[C@@H](C)NC(=O)[C@H](CO)NC(=O)[C@@H](Cc2c(-c3ccc(-c4ccc(-c5ccccc5)cc4)cc3)[nH]c3ccccc23)NC(=O)[C@@H](CO)NC1=O has an MIC90 of greater than 50 µM (broth dilution).
Nc1nc2ccc(S(=O)(=O)c3cn[nH]c3)cc2s1 gave an inhibition of -6.39% (pyocyanin production; PA14-lux; 200 µM, 18 h; relative to: DMSO vehicle).
CCCC(=O)C#Cc1ccc(F)c(F)c1 gave an exoprotease production of 89% (10 µM, 24 h; relative to: untreated).
CC(C)[C@H]1NC(=O)[C@H](Cc2ccccc2)NC(=O)[C@@H](C(C)C)NC(=O)[C@@H](C)NC(=O)[C@H](C)NC(=O)[C@@H](Cc2c(-c3ccc(-c4ccc5ccccc5c4)cc3)[nH]c3ccccc23)NC(=O)[C@@H](CO)NC1=O has an MIC90 of greater than 50 µM (broth dilution).
CC(C)C[C@H](NC(=O)[C@H](CC(C)C)NC(=O)[C@H](CCCCN)NC(=O)[C@H](Cc1ccccc1)NC(=O)[C@@H](NC(=O)[C@H](CCCNC(=N)N)NC(=O)[C@@H](N)CCCCN)C(C)C)C(=O)N[C@@H](CCCCN)C(=O)N[C@@H](CCCNC(=N)N)C(=O)N[C@@H](Cc1ccc(O)cc1)C(=O)N[C@@H](Cc1c[nH]c2ccccc12)C(=O)N[C@@H](CCCNC(=N)N)C(=O)N[C@@H](CCC(N)=O)C(=O)N[C@@H](CC(C)C)C(=O)N[C@@H](CCCCN)C(=O)N[C@@H](CCCCN)C(=O)N1CCC[C@H]1C(=O)N[C@H](C(=O)N[C@@H](CCCNC(=N)N)C(=O)NCCOCCOCC(=O)O)C(C)C: hemolytic activity “decreased” (ATCC 10145-GFP; sub-MIC, 24 h; relative to: untreated).
For CC(C)C[C@@H]1NC(=O)[C@@H](CC(C)C)NC(=O)[C@H](CCN)NC(=O)[C@@H](NC(=O)[C@H](CCN)NC(=O)[C@@H](NC(=O)CCCCN=[N+]=[N-])[C@@H](C)O)CCNC(=O)[C@H]([C@@H](C)O)NC(=O)[C@H](CCN)NC(=O)[C@H](CCN)NC1=O, the MIC was 4 µM (broth microdilution; ATCC 10145, cation-adjusted Mueller-Hinton broth).
CC[C@H](C)[C@H](NC(=O)[C@H](CCCCN)NC(=O)[C@H](CCCCN)NC(=O)[C@H](Cc1ccccc1)NC(=O)[C@H](Cc1ccccc1)NC(=O)[C@H](CCCCN)NC(=O)[C@H](CCCCN)NC(=O)[C@H](Cc1ccccc1)NC(=O)[C@H](CCCNC(=N)N)NC(=O)[C@@H](N)CCCCN)C(=O)N[C@@H](CCCCN)C(=O)N[C@@H](CCCCN)C(=O)N[C@@H](CO)C(=O)N[C@H](C(=O)N[C@@H](CCCCN)C(=O)N[C@@H](CCCCN)C(=O)N[C@@H](CCCNC(=N)N)C(=O)N[C@H](C(=O)N[C@@H](CCCCN)C(=O)N[C@@H](CCCCN)C(=O)N[C@@H](CC(C)C)C(=O)N[C@@H](Cc1ccccc1)C(=O)N[C@@H](CCCCN)C(=O)N[C@@H](CCCCN)C(=O)N1CCC[C@H]1C(=O)N[C@@H](CCCNC(=N)N)C(=O)N[C@H](C(=O)N[C@H](C(=O)N1CCC[C@H]1C(=O)N[C@H](C(=O)N[C@@H](CO)C(=O)N[C@H](C(=O)N1CCC[C@H]1C(=O)N[C@@H](Cc1ccccc1)C(=O)O)[C@@H](C)CC)[C@@H](C)CC)[C@@H](C)CC)C(C)C)C(C)C)C(C)C gave an MBC of 16 µg/mL (P1 clinical isolate; 20 h).
For O=C(O)CN(CC(=O)O)CP(=O)(O)O, the meropenem MIC was 1 µg/mL (VIM-2 producer; 32 µg/mL, together with: meropenem).
CN[C@H](CC(C)C)C(=O)N[C@H]1C(=O)N[C@@H](CC(N)=O)C(=O)N[C@H]2C(=O)N[C@H]3C(=O)N[C@H](C(=O)N[C@H](C(=O)O)c4cc(O)cc(O)c4-c4cc3ccc4O)[C@H](O)c3ccc(c(Cl)c3)Oc3cc2cc(c3O[C@@H]2O[C@H](CO)[C@@H](O)[C@H](O)[C@H]2O[C@H]2C[C@](C)(NCc3ccc(OCc4cn(CC(=O)N[C@H](C(=O)N[C@@H](CCN)C(=O)N[C@H]5CCNC(=O)[C@H]([C@@H](C)O)NC(=O)[C@H](CCN)NC(=O)[C@H](CCN)NC(=O)[C@H](CC(C)C)NC(=O)[C@@H](CC(C)C)NC(=O)[C@H](CCN)NC5=O)[C@@H](C)O)nn4)c(OC)c3)[C@H](O)[C@H](C)O2)Oc2ccc(cc2Cl)[C@H]1O has an MIC of 24 µM (broth microdilution; ATCC 10145, cation-adjusted Mueller-Hinton broth).
The inhibition of Nc1nc2ccc(C(F)(F)F)cc2s1 is reported as 33.5% (swarming area, modified FAB agar; PA14-lux; 200 µM, 24 h; relative to: DMSO vehicle).
CCCC(=O)OCCSCCC(=O)N[C@H](CCN)C(=O)N[C@@H](CCN)C(=O)N[C@@H](CCN)C(=O)N[C@@H](CC(C)C)C(=O)N[C@H](Cc1ccccc1)C(=O)N[C@@H](CCN)C(=O)N[C@@H](CCN)C(=O)N[C@@H](CC(C)C)C(N)=O has an MBC of greater than 128 µM (PAO1; 24 h, 37 °C).
Nc1nc2ccc(Oc3ccncc3)cc2s1 has an inhibition of 26% (pyocyanin production; PA14-lux; 200 µM, 18 h; relative to: DMSO vehicle).
C#CCOc1ccc(CN[C@@]2(C)C[C@H](O[C@H]3[C@H](Oc4c5cc6cc4Oc4ccc(cc4Cl)[C@@H](O)[C@@H](NC(=O)[C@@H](CC(C)C)NC)C(=O)N[C@@H](CC(N)=O)C(=O)N[C@H]6C(=O)N[C@H]4C(=O)N[C@H](C(=O)N[C@H](C(=O)NCC(N)=O)c6cc(O)cc(O)c6-c6cc4ccc6O)[C@H](O)c4ccc(c(Cl)c4)O5)O[C@H](CO)[C@@H](O)[C@@H]3O)O[C@@H](C)[C@H]2O)cc1OC has an MIC of greater than 128 µg/mL (broth microdilution; ATCC 10145, cation-adjusted Mueller-Hinton broth; 18 to 20 h, 37 °C, 0.002% polysorbate 80).
For Cn1cc(S(=O)(=O)c2ccc3nc(N)sc3c2)cn1, the inhibition was 5.51% (pyocyanin production; PA14-lux; 200 µM, 18 h; relative to: DMSO vehicle).
The MBC of CC(C)C[C@H](NC(=O)[C@H](Cc1ccccc1)NC(=O)[C@H](CCC(N)=O)NC(=O)[C@H](Cc1ccc(O)cc1)NC(=O)[C@H](CCCCN)NC(=O)[C@@H]1CCCN1C(=O)[C@H](CCCNC(=N)N)NC(=O)[C@H](CCC(N)=O)NC(=O)[C@H](Cc1c[nH]c2ccccc12)NC(=O)[C@H](CS)NC(=O)[C@H](Cc1c[nH]c2ccccc12)NC(=O)[C@H](Cc1ccccc1)NC(=O)[C@H](CCCNC(=N)N)NC(=O)[C@H](CCCCN)NC(=O)[C@H](CCCCN)NC(=O)[C@H](CCCCN)NC(=O)[C@@H](NC(=O)[C@@H](NC(=O)[C@H](CC(C)C)NC(=O)[C@@H](N)CO)C(C)C)[C@@H](C)O)C(=O)O is reported as 8 µg/mL.
Nc1nc2ccc(Oc3ccc4nc(N)sc4c3)cc2s1 gave an inhibition of greater than 90% (swarming area, modified FAB agar; PA14-lux; 200 µM, 24 h; relative to: DMSO vehicle).
CN[C@H](CC(C)C)C(=O)N[C@H]1C(=O)N[C@@H](CC(N)=O)C(=O)N[C@H]2C(=O)N[C@H]3C(=O)N[C@H](C(=O)N[C@H](C(=O)N[C@@H](CCCNC(=N)N)C(N)=O)c4cc(O)cc(O)c4-c4cc3ccc4O)[C@H](O)c3ccc(c(Cl)c3)Oc3cc2cc(c3O[C@@H]2O[C@H](CO)[C@@H](O)[C@H](O)[C@H]2O[C@H]2C[C@](C)(NCc3ccc(OCc4cn(CC(=O)N[C@H](C(=O)N[C@@H](CCN)C(=O)N[C@H]5CCNC(=O)[C@H]([C@@H](C)O)NC(=O)[C@H](CCN)NC(=O)[C@H](CCN)NC(=O)[C@H](CC(C)C)NC(=O)[C@@H](CC(C)C)NC(=O)[C@H](CCN)NC5=O)[C@@H](C)O)nn4)c(OC)c3)[C@H](O)[C@H](C)O2)Oc2ccc(cc2Cl)[C@H]1O gave an MIC of 11 µM (broth microdilution; ATCC 10145, cation-adjusted Mueller-Hinton broth).
With Nc1nc2ccc(S(=O)(=O)c3ccncc3)cc2s1 the inhibition was -8.36% (swarming area, modified FAB agar; PA14-lux; 200 µM, 24 h; relative to: DMSO vehicle).
With CCC(=O)OCCSC[C@H](N)C(=O)N[C@H](CCN)C(=O)N[C@@H](CCN)C(=O)N[C@@H](CCN)C(=O)N[C@@H](CC(C)C)C(=O)N[C@H](Cc1ccccc1)C(=O)N[C@@H](CCN)C(=O)N[C@@H](CCN)C(=O)N[C@@H](CC(C)C)C(N)=O the MBC was greater than 128 µM (PAO1; 24 h, 37 °C).
CC(C)[C@H]1NC(=O)[C@H](Cc2ccccc2)NC(=O)[C@@H](C(C)C)NC(=O)[C@@H](C)NC(=O)[C@H](CO)NC(=O)[C@@H](Cc2c(-c3ccc(C4CCCCC4)cc3)[nH]c3ccccc23)NC(=O)[C@@H](CO)NC1=O gave an MIC90 of greater than 50 µM (broth dilution).
The inhibition of Nc1nc2ccc(Oc3cc[nH]c(=O)c3)cc2s1 is reported as 21% (pyocyanin production; PA14-lux; 200 µM, 18 h; relative to: DMSO vehicle).

Some of these lines once more:
CC(C)C[C@H](NC(=O)[C@H](CC(C)C)NC(=O)[C@H](CCCCN)NC(=O)[C@H](Cc1ccccc1)NC(=O)[C@@H](NC(=O)[C@H](CCCNC(=N)N)NC(=O)[C@@H](N)CCCCN)C(C)C)C(=O)N[C@@H](CCCCN)C(=O)N[C@@H](CCCNC(=N)N)C(=O)N[C@@H](Cc1ccc(O)cc1)C(=O)N[C@@H](Cc1c[nH]c2ccccc12)C(=O)N[C@@H](CCCNC(=N)N)C(=O)N[C@@H](CCC(N)=O)C(=O)N[C@@H](CC(C)C)C(=O)N[C@@H](CCCCN)C(=O)N[C@@H](CCCCN)C(=O)N1CCC[C@H]1C(=O)N[C@H](C(=O)N[C@@H](CCCNC(=N)N)C(=O)NCCOCCOCC(=O)O)C(C)C: hemolytic activity “decreased” (ATCC 10145-GFP; sub-MIC, 24 h; relative to: untreated).
